Measurements of several laboratories.
“And” joins repeats or separate records; there may be more than shown. Ends that are not written are not given here.
B1: disulfide; chain ATCYCRTGRCATRESLSGVCEISGRLYRLCCR (disulfide (positions not given here))

| Molecule | target or system | assay | test system | setting | scale | measurement | value |
| --- | --- | --- | --- | --- | --- | --- | --- |
| AFTCHCRR / SCYSTEYSYGTCTVMGINHRFCCL (disulfide) | Acinetobacter baumannii | crystal violet staining | peptide, 19606 | concentration not given | – | biofilm formation | 170% and 203% and 125% and 197% and 103% |
| colistin | Acinetobacter baumannii | – | carbapenem-resistant clinical isolate | – | – | MIC | 0.5 µg/mL |
| polymyxin B | Acinetobacter baumannii | – | 17978, colistin-sensitive, Mueller-Hinton broth | – | – | MIC | 0.5 µg/mL |
| Polymyxin B | Acinetobacter baumannii | broth microdilution | A1, clinical isolate, Mueller-Hinton broth | 20 h, 37 °C | – | MIC | 0.5 µg/mL |
| colistin sulfate | Acinetobacter baumannii | broth microdilution | 22933 | – | – | MIC | 0.4 µM |
| B1 | Acinetobacter baumannii | crystal violet staining | 19606 | concentration not given | – | biofilm formation | 114% and 128% and 168% and 118% and 205% |
| tunicamycin | Acinetobacter baumannii | broth microdilution, EUCAST | ATCC 17978 | 18 to 24 h, 37 °C | – | MIC | > 64 µg/mL |
| colistin | Acinetobacter baumannii | – | 1188767, multidrug-resistant | – | – | MIC | 0.25 µg/mL |
| HNP1 T18A | Acinetobacter baumannii | crystal violet staining | 19606 | concentration not given | – | biofilm formation | 315% and 360% and 262% and 374% and 474% and 393% |
| insulin human | – | refers to: KALRN mRNA | EcoHIV-infected mouse, brain | i.p., dose not given | relative to: PBS | fold change | 1.07 |
| Polymyxin B | Acinetobacter baumannii | broth microdilution, MH medium | carbapenem-resistant CCARM 12006 | 16 h, 37 °C | – | MIC | 8 µM |
| Polymyxin B | Acinetobacter baumannii | – | 17978 | sub-MIC | – | time to resistance | 3 to 4 days |

Some of these lines once more:
| Molecule | target or system | assay | test system | setting | scale | measurement | value |
| --- | --- | --- | --- | --- | --- | --- | --- |
| insulin human | – | refers to: KALRN mRNA | EcoHIV-infected mouse, brain | i.p., dose not given | relative to: PBS | fold change | 1.07 |
